Experimental data gathered from unrelated publications.
± marks the error that the study gave.

CC[C@H](C)[C@H](NC(=O)[C@H](CC(C)C)NC(=O)CNC(=O)[C@@H]1CCCN1C(=O)[C@H](CC(C)C)NC(=O)[C@H](C)NC(=O)[C@H](CCCCN)NC(=O)CNC(=O)[C@H](CC(C)C)NC(=O)[C@H](CCSC)NC(=O)[C@H](CCCCN)NC(=O)[C@H](C)NC(=O)[C@H](C)NC(=O)[C@H](C)NC(=O)CNC(=O)[C@H](Cc1c[nH]c2ccccc12)NC(=O)[C@@H](N)Cc1ccccc1)C(=O)N[C@@H](CO)C(=O)N[C@@H](CCSC)C(=O)N[C@@H](Cc1ccccc1)C(=O)N[C@@H](CCC(N)=O)C(=O)N[C@@H](CCCCN)C(=O)N[C@@H](CC(N)=O)C(=O)O — CC50 (HEK293 cells; resazurin; 24 h): < 6 µM
COP(=O)(OC)Oc1ccc([N+](=O)[O-])cc1 — IC50 (muscarinic receptors, rat; radioligand displacement; aging cortex membranes; 90 min, 21 °C, with: 1 nM [3H]oxotremorine-M): 0.064 µM
CC[C@H](C)[C@H](NC(=O)[C@H](CCCCN)NC(=O)[C@H](CC(C)C)NC(=O)[C@H](CC(C)C)NC(=O)[C@H](C)NC(=O)CNC(=O)[C@H](CC(C)C)NC(=O)[C@@H](N)Cc1ccccc1)C(=O)NCC(=O)N[C@@H](C)C(=O)N[C@@H](CCCCN)C(=O)N[C@@H](CC(C)C)C(=O)N[C@@H](CC(C)C)C(=O)N1CCC[C@H]1C(=O)N[C@@H](CO)C(=O)N[C@H](C(=O)N[C@H](C(=O)NCC(=O)N[C@@H](CC(C)C)C(=O)N[C@@H](Cc1ccccc1)C(=O)N[C@@H](CCCCN)C(=O)N[C@@H](CCCCN)C(=O)N[C@@H](CCCCN)C(=O)N[C@@H](CCC(N)=O)C(=O)N[C@@H](CCC(N)=O)C(=O)O)C(C)C)C(C)C — CC50 (HEK293 cells; resazurin; 24 h): < 6 µM
CCOP(=S)(OCC)Oc1nc(Cl)c(Cl)cc1Cl — IC50 (ReNcell VM; intracellular glutathione level, monochlorobimane; 24 h): 8.25 ± 0.25 µM
CC(C)[C@H]1C(=O)O[C@H](C(C)C)C(=O)N(C)[C@@H](C(C)C)C(=O)O[C@H](C(C)C)C(=O)N(C)[C@@H](C(C)C)C(=O)O[C@H](C(C)C)C(=O)N1C — tissue concentration (LC-MS/MS; CB-17 scid/scid mice, muscle; intraperitoneal, 5 mg/kg, 24 h after last dose, daily dosing): 0.12 ± 0.03 µg/kg
CSCC[C@H](NC(=O)[C@H](CC(C)C)NC(=O)[C@H](C)N)C(=O)N[C@@H](CC(C)C)C(=O)N[C@@H](CCCNC(=N)N)C(=O)N[C@@H](CC(C)C)C(=O)N[C@@H](CC(C)C)C(=O)N[C@@H](CCCNC(=N)N)C(=O)N[C@H](C(=O)O)[C@@H](C)O — IFN-γ+ CD8+ T cells (epitope-specific T-cell response, intracellular cytokine staining; PBMC, human; 10 µg/mL, 72 h): 4.3%
CC(C)(C)NC(=S)N/N=C/C=N/NC(=S)NC(C)(C)C — inhibition (VSVΔG pseudotyped with MERS-CoV S; pseudovirus infection; 10 µM): 60%
O=c1ccn([C@@H]2O[C@](F)(CO)[C@@H](O)[C@H]2O)c(=O)[nH]1 — EC50 (Mammarenavirus lassaense; viral replication; HeLa, clade III Nigeria-231): 8.43 µM
